# Measured values pooled from the literature.
# Several values in a cell are separate wells, animals, samples, runs or records.
# Target: Protein-tyrosine kinase 6 (PTK6, Homo sapiens, UniProt Q13882)
SMILES,assay,setting,how to read,endpoint,result
Cc1cnc2nc1Nc1cccc(c1)COC/C=C/COCc1cc(ccc1OCCN1CCOCC1)N2,"binding, competition with immobilised ligand",0.1 µM,,remaining binding,100%
Nc1ncc(-c2cc(-c3cnn(CC(F)(F)F)c3)ncc2F)nc1C(=O)NC1CNCC(F)C1 (stereo not shown),enzyme activity,1 µM,reference: DMSO control,remaining activity,76.8%
NC(=O)C[C@H]1CCc2sc3ncnc(O[C@H]4CC[C@H](N5CCOCC5)CC4)c3c21,"enzyme activity, inhibitor",10 µM,,inhibition,22%
C=CC(=O)N1Cc2nc(-c3cc(-c4cc(Cl)cnc4Cl)c(F)cc3F)n(-c3ccncn3)c2C1,"cell-free assay, inhibitor",1 µM,,inhibition,-1.7%
Cc1ccc(-c2c(/C=C(\C#N)C(=O)NC(C)C)n(CCCO)c3ncnc(N)c23)cc1,"cell-free assay, competition with immobilised ligand",1 µM,,remaining binding,78%
CCN1CCN(Cc2ccc(C(=O)Nc3ccc(C)c(NCc4cnc5[nH]ccc5c4OC)c3)cc2C(F)(F)F)CC1,"binding, competition with immobilised ligand",1 µM,,remaining binding,85%
Nc1ncc2c(n1)-c1c([nH]c3ccc(C4=CCOCC4)cc13)CCC2,"binding, competition with immobilised ligand",1 µM,,remaining binding,100%
C[C@H]1CN(C(=O)c2cn(-c3ccnc(N)n3)c3cc(C#CC4(O)CCCCC4)ccc23)CCN1,"enzyme activity, inhibitor, FRET",1 µM,,inhibition,-2%
Cc1cccc(O[C@H]2CCC[C@@H](C(C)CNCc3ccncc3)C2)c1 (relative stereo),"enzyme activity, inhibitor",1 µM,,inhibition,-2%
O=C=[N][Ru-4]123([n]4c5ccc(O)cc5c5c6c(c7cc(F)c[n+]1c7c54)C(=O)NC6=O)[S+]1CC[S+]2CC[S+]3CC1 (stereo not shown),enzyme activity,"100 nM, human enzyme, with: 10 µM ATP",reference: untreated,remaining activity,114%
C=CC(=O)Nc1cccc(-c2cnc3[nH]cc(C(=O)NC(C)(C)C)c3n2)c1,"enzyme activity, inhibitor",0.1 µM,,inhibition,2%
C=CC(=O)N1CCCC(n2c(=O)c3ncccc3n(Cc3ccc(Oc4ccccc4)cc3)c2=O)C1 (stereo not shown),"cell-free assay, competition with immobilised ligand",1 µM,,remaining binding,98%
Cc1nc2c(F)cc(-c3nc(Nc4ccc(CNC(=O)CCCCCCC(=O)NO)cc4)ncc3F)cc2n1C(C)C,"enzyme activity, inhibitor",1 µM,,inhibition,49%
COc1cc(Nc2nccc(-c3cnn4nc(OC)ccc34)n2)cc(C(F)(F)F)c1,"binding, competition with immobilised ligand",1 µM,,remaining binding,98%
COCC12C(=O)NC3C4(C(OC)CC1O)C1CC5(O)C(OC)C(O)C(OC(C)=O)(C1C5OC(=O)c1ccccc1)C3(O)C(OC)C24 (stereo not shown),"kinase activity, inhibitor, ProQinase kinase profiling",25 µM,reference: control,remaining activity,97% and 113%
CCn1cc(C(=O)O)c(=O)c2c(N)c(F)c(NC3CCCCC3)cc21,kinase activity,"0.1 µM, with: ATP at Km",,inhibition,-5.7%

# Excerpt of the above:
SMILES,assay,setting,how to read,endpoint,result
C=CC(=O)Nc1cccc(-c2cnc3[nH]cc(C(=O)NC(C)(C)C)c3n2)c1,"enzyme activity, inhibitor",0.1 µM,,inhibition,2%
C=CC(=O)N1CCCC(n2c(=O)c3ncccc3n(Cc3ccc(Oc4ccccc4)cc3)c2=O)C1 (stereo not shown),"cell-free assay, competition with immobilised ligand",1 µM,,remaining binding,98%
